# Assay results of several laboratories.
# Each numbered part is a random draw from the data of one study; scales do not carry over between parts. Positions count from the first letter of the parent shown.

# Series 1
# Target: ABI1, truncated, D143A, DHFR fusion (Arabidopsis thaliana)
# Method: DHFR PCA, deep sequencing
# Sample: yeast
# Notes: methotrexate growth selection, single substitutions
# With: (+)-ABA 17 µM
# Relative to: wild-type fitted maximum
# Reading: higher = stronger binding
# Starting sequence: PYL1, truncated, DHFR fusion (Arabidopsis thaliana); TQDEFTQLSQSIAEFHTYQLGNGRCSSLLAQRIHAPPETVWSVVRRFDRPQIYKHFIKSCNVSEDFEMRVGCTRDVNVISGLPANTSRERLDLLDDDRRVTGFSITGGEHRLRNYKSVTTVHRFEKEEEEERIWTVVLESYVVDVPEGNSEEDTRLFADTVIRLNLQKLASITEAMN; partner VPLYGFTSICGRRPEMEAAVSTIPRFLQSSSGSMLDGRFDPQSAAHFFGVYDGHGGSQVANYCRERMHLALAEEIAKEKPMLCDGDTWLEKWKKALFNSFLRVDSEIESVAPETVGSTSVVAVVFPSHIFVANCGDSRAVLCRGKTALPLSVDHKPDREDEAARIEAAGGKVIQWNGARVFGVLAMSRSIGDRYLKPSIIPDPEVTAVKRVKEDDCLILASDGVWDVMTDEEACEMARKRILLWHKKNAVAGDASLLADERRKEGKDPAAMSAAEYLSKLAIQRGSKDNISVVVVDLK
Variant,relative binding score [%]
I105E,0.471
V44L,75.3
R49I,48.5
K54I,6.59
V76P,-6.89
A158Y,1
H122P,4.63
T119F,4.48
A170Y,-8.45
R113C,74.9
E4P,69.3
Q31N,12.6
Q7I,73.1
V76M,20.1
Y115Q,-12.8
P36T,75.4
V142G,33.3
V78I,92.4
P83G,39.3

# Series 2
# Target: Histone acetyltransferase KAT6A, winged helix 1, GST fusion (KAT6A, Homo sapiens, UniProt Q92794, residues 1-85)
# Method: protein binding microarray
# Molecule type: double-stranded DNA, one strand shown
# Sample: in vitro
# Concentration: not given
# Notes: 8-mer, flanks averaged, mean of 2 arrays, mostly near background
# Relative to: not given
# Reading: higher = stronger binding
# Construct (chain): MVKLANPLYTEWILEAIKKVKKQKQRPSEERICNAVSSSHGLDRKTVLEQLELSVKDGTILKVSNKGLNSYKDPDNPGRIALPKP
Oligonucleotide,E-score
GGCATGAA,0.02
CGGTACAA,0.214
CGTCCGTC,0.251
AAGTGGCA,-0.225
ATCTTAAG,-0.104
AAAGTACA,-0.165
ATCAGACC,0.117
CCTTGACG,0.0771
ACAGTCGG,0.0494
CCCGCTCG,0.379
AAGGATAA,-0.078
AAACGCAC,0.1
CTCACAGC,-0.233
AAGTCCAT,-0.157
CAGCCTAG,-0.157
ACTGTGGC,-0.213
CAGTAAAG,-0.0491
CATCGCTC,0.183
CACAGTGA,-0.196
GGGAACCA,0.0139
GCGTCTTA,0.187

# Series 3
# Target: Ras GTPase-activating protein-binding protein 1, RRM domain (G3BP1, Homo sapiens, UniProt Q13283)
# Chain of UniProt Q13283 (whole entry, looked up): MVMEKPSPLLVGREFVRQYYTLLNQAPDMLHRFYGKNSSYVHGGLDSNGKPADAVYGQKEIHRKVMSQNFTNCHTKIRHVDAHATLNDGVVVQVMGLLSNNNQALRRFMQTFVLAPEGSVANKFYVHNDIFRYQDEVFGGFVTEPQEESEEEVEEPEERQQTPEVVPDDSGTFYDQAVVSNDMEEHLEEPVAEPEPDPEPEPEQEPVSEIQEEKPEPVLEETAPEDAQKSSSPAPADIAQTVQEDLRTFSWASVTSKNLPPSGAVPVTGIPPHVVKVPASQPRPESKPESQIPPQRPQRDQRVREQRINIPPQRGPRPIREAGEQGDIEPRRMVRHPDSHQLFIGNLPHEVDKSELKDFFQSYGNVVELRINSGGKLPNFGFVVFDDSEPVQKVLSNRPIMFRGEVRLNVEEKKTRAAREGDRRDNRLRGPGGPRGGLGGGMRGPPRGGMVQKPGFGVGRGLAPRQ
# Method: RNA Bind-n-Seq
# Molecule type: RNA
# Sample: in vitro
# Concentration: 1 µM
# Notes: whole 134-nt RNA, ends assumed
# With: 150 mM KCl
# Relative to: input library
# Reading: higher = stronger binding
# Shared flanks, not repeated: GGGAGUUCUACAGUCCGACGAUC … UGGAAUUCUCGGGUGUCAAGG
Oligonucleotide,log2 enrichment
GCAGGAAGUAUAAACAAAUGGAAAUGCUUCGGAUAGUGGCAGGGGUGGGGGUUGCUAAGGAAAGGGUGGGAUGGGAGUGGGUAAAGAGUU,0.845
UCUUCCGUGACAUUUCAUUUGGGGAACAACUUUUCUCUUUACAGGCCCGAGUGACUAAGGGAUGUACCAUUGUUAAGCCUUUCAACCUGU,0.0272
CUCAAGUCCUGUGCUACACAUCGUAUGUACCGAAUCGGGAAAGGGAGGGUGGGAAAGUAUUAUGUUACGCCGUUCGGAUCUGCACUUCCA,0.75
AAGUCCUGUGCUACACAUCGUAUGUACCGAAUCGGAAAAGGGGAAAAGGGAAAAGGGAAAGUAUUAUGUUACGCCGUUCGGAUCUGCACU,0.152
GCAGGAAGUAAAAACAAAUGGAAAUGCUUCGGAUGGUGGCAGGGGUGGGGGUUGCUAAGGAAAGGGUGGGAUGGGAGUGGGUAAAGAGUU,1.01
ACCAUGCAGGUGGGCAUCUUUGGGAAGUGGGGCAAGGGGGGGAUAGGGAGGGGGGUAACACUUUGGGAACAGGUGGUCCCAGGACGUUUC,0.724
UCCUGUGCUACACAUCGUAUGUACCGAAUCGGAAAAAAGGGGAAAAAAGGGAAAAAAGGAAAGUAUUAUGUUACGCCGUUCGGAUCUGCA,0.113
ACCAUGCAGGUGGGCAUCUUUGGGAAGUGGGGCAAGGGGGGGAUAGGGAGGGGGGUACCACUUUGGGAACAGGUGGUCCCAGGUCGUUUC,1.05
CCUCAAGUCCUGUGCUACACAUCGUAUGUACCGAAUCGGGGCGGGGCGGCGGGAAAGUAUUAUGUUACGCCGUUCGGAUCUGCACUUCCA,-0.178

# Series 4
# Target: Interferon regulatory factor 7, full length, phosphomimetic (IRF7, Homo sapiens, UniProt Q92985, residues 1-503, S471D/S472D/S475D/S476D/S477D/S483D/S484D/S487D)
# Method: protein-binding microarray
# Molecule type: double-stranded DNA, one strand shown
# Sample: in vitro
# Concentration: 2200 nM top
# Notes: 60-bp whole probe
# With: salmon DNA 0.4 mg/ml
# Relative to: random background probes
# Reading: higher = stronger binding
# Shared flanks, not repeated: GCCTAGCAC … GTCTTGATTCGCTTGACGCTGCTG
# Target sequence (chain): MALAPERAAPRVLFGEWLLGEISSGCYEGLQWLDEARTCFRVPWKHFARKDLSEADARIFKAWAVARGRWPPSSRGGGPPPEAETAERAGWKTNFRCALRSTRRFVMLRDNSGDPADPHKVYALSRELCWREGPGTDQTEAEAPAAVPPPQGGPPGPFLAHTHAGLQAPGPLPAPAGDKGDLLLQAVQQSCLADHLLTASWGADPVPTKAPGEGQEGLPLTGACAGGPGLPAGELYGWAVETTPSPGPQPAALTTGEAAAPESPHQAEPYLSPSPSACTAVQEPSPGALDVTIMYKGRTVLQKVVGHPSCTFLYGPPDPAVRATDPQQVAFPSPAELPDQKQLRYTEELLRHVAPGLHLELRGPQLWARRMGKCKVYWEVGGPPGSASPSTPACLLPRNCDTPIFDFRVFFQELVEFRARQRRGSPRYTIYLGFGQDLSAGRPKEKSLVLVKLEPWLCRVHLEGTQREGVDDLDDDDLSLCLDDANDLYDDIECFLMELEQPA
Oligonucleotide,fitted relative affinity [z-score]
TCACATTTTCTCTTATTACTGTGCTAG,2.72
GACGGTATCCTACTGCTGAAGTGCTAG,0.583
GACAATATCAGTCTCGAGACGTGCTAG,0.317
TTCACTATTGCTTCCTCTTTGTGCTAG,2.76
GACGGACTGGGGTTCGGGACGTGCTAG,-0.757
GACGATTCCAGTTTTGAGACGTGCTAG,1.02
TTAGGTATCGGACCGGGTTAGTGCTAG,-0.238
GACGGTTTCTGTCTCGGGACGTGCTAG,2.73
TTAGGTATGGGGTTTCGGTTAGTGCTA,3.42
GACGATTTCGGGTATCGAGTCGTGCTA,3.3
TTAGTTTTCGGGTTTCGATTAGTGCTA,10.1
GACGGTTTCCTTCTCCTGAAGTGCTAG,3.02
TTAGGTTTCGGTCTCAGTTAGTGCTAG,5.91
GACGGTCTCCTTATCCTGTCGTGCTAG,1.71
GACGATTTCGCGTTTCGAGACGTGCTA,3.05
TCAACTAGGGCATTTAGAACTGTGCTA,-1.18
GACGGGTTCGACTATCGGGACGTGCTA,0.0837
GACGGTATCGGGCTTCGGGACGTGCTA,-0.447
TTAGATATCAGTCTCAATTAGTGCTAG,-0.184

# Some of these lines once more (series 1):
Variant,relative binding score [%]
A158Y,1
H122P,4.63
T119F,4.48
A170Y,-8.45
R113C,74.9
E4P,69.3
Q31N,12.6
Q7I,73.1
V76M,20.1
Y115Q,-12.8
P36T,75.4
